Measured values from different studies.
Chain of UniProt Q13547 (whole entry, looked up): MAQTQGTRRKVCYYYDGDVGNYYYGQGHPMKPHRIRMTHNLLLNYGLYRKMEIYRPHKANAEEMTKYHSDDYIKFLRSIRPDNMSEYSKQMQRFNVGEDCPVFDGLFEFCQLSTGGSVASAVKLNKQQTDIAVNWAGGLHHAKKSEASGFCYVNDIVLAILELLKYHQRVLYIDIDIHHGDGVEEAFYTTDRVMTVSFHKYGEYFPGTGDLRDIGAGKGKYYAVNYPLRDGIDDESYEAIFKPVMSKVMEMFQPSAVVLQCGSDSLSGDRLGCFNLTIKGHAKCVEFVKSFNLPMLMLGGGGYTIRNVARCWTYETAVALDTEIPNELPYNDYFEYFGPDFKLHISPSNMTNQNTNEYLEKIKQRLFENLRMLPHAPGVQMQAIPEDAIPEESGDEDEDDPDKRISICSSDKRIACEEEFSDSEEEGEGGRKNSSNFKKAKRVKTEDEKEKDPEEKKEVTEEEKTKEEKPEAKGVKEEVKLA

Compound	tested on	assay	test system	conditions	scale	quantity	result
CC(C)C1NC(=O)C(C(=O)NC(C(=O)NC2C(=O)N3C2SC(C)(C)C3C(=O)O)c2ccccc2)=C1O (stereo not drawn)	Escherichia coli	broth microdilution	isolate IU 356 A, KPC-3, VIM-1, TEM	with: clavulanic acid 6 µg/mL	–	MIC	> 200 µg/mL
Cc1ccccc1C(=O)NN=Cc1ccc(O)c(Br)c1	Cryptococcus neoformans	–	–	compound alone, with: tunicamycin	–	MIC	1 µg/mL
Cc1ncc([N+](=O)[O-])n1CCO	Clostridioides difficile	–	–	–	–	MIC	0.06 to 0.5 µg/mL
CCc1cccc(N(C)C(=N)Nc2cccc3ccccc23)c1	Plasmodium falciparum	–	HB3	–	–	IC50	10 µM
N=C(N)NCCC[C@H](NC(=O)CN)C(=O)N[C@@H](Cc1c[nH]c2ccccc12)C(=O)N[C@@H](CCCNC(=N)N)C(=O)N[C@@H](Cc1c[nH]c2ccccc12)C(=O)N[C@@H](Cc1c[nH]c2ccccc12)C(=O)N[C@@H](Cc1c[nH]c2ccccc12)C(=O)N[C@@H](CCCNC(=N)N)C(=O)N[C@@H](Cc1c[nH]c2ccccc12)C(=O)N[C@@H](CCCNC(=N)N)C(=O)N[C@@H](Cc1c[nH]c2ccccc12)C(N)=O	Candida albicans	broth microdilution	CGMCC 2.209, RPMI 1640-MOPS	48 h, 30 °C	–	MIC	4 µM
CC(C)CC1NC(=O)C(C(=O)NC(C(=O)NC2C(=O)N3C2SC(C)(C)C3C(=O)O)c2ccccc2)=C1O (stereo not drawn)	Escherichia coli	broth microdilution	ATCC 35218, low-level TEM-1	with: clavulanic acid 6 µg/mL	–	MIC	50 µg/mL
CC[C@H](C)[C@H](NC(=O)CN)C(=O)NCC(=O)N[C@@H](CCCCN)C(=O)N[C@@H](Cc1ccccc1)C(=O)N[C@@H](CC(C)C)C(=O)N[C@@H](CCCCN)C(=O)N[C@@H](CCCCN)C(=O)N[C@@H](C)C(=O)N[C@@H](CCCCN)C(=O)N[C@@H](CCCCN)C(=O)N[C@@H](Cc1ccccc1)C(=O)NCC(=O)N[C@@H](CCCCN)C(=O)N[C@@H](C)C(=O)N[C@@H](Cc1ccccc1)C(=O)N[C@H](C(=O)N[C@@H](CCCCN)C(=O)N[C@H](C(=O)N[C@@H](CC(C)C)C(=O)N[C@@H](CCCCN)C(=O)N[C@@H](CCCCN)C(N)=O)[C@@H](C)CC)C(C)C	Salmonella typhimurium	broth dilution	SL1344	–	–	MIC	6.3 µM
CC1(C)SC2C(NC(=O)C(NC(=O)C3=C(O)CN(c4ccccc4)C3=O)c3ccccc3)C(=O)N2C1C(=O)O (stereo not drawn)	Escherichia coli	broth microdilution	Keio mutant JW0146-2	18 h, ferric hydroxamate uptake gene	–	MIC	50 µg/mL
CC(C)C[C@H](NC(=O)[C@H](CCCCN)NC(=O)[C@H](CO)NC(=O)[C@H](C)NC(=O)[C@H](C)NC(=O)CNC(=O)[C@H](CC(C)C)NC(=O)[C@H](CCCCN)NC(=O)[C@H](CC(C)C)NC(=O)[C@H](CC(C)C)NC(=O)[C@H](CC(C)C)NC(=O)CNC(=O)[C@H](CO)NC(=O)[C@H](Cc1c[nH]c2ccccc12)NC(=O)[C@@H](N)CCCCN)C(N)=O	Candida glabrata	broth microdilution	ATCC 2001	44 h, 37 °C	–	MIC	100 µM
CC1=C(C)C(=O)C(CCCCC#CCCCC#CCO)=C(C)C1=O	Plasmodium falciparum	–	Dd2	–	–	IC50	10 µM
CCCCCCCC(=O)CP(=O)(O)O	Streptococcus pneumoniae	–	–	–	–	MIC	> 200 µg/mL
CC[C@H](C)[C@H](NC(=O)[C@H](CC(C)C)NC(=O)CNC(=O)[C@H](CCCCN)NC(=O)[C@H](CC(C)C)NC(=O)[C@@H](NC(=O)[C@H](CCCCN)NC(=O)[C@@H](NC(=O)[C@@H](NC(=O)[C@H](CCC(N)=O)NC(=O)[C@H](CC(N)=O)NC(=O)[C@@H](NC(=O)[C@@H](NC(=O)[C@H](CC(=O)O)NC(=O)[C@H](CO)NC(=O)[C@@H](N)CCSC)[C@@H](C)CC)[C@@H](C)CC)[C@@H](C)CC)C(C)C)C(C)C)C(=O)N[C@@H](CC(=O)O)C(=O)N[C@@H](CCCCN)C(=O)N[C@@H](CC(C)C)C(=O)N[C@H](C(=O)N[C@@H](CCCCN)C(=O)N[C@@H](CCCCN)C(=O)O)[C@@H](C)O	Bifidobacterium adolescentis	broth microdilution	DSM 108263	–	–	MIC	5.01 µM
N=C(N)NCCC[C@H](NC(=O)[C@H](Cc1c[nH]c2ccccc12)NC(=O)[C@H](CCCNC(=N)N)NC(=O)[C@H](Cc1c[nH]c2ccccc12)NC(=O)[C@H](Cc1c[nH]c2ccccc12)NC(=O)[C@H](Cc1c[nH]c2ccccc12)NC(=O)[C@H](CCCNC(=N)N)NC(=O)[C@H](Cc1c[nH]c2ccccc12)NC(=O)[C@H](CCCNC(=N)N)NC(=O)CN)C(N)=O	Candida albicans	–	CGMCC 2.209	no added salts	–	MIC	4 µM
CC1(C)SC2C(NC(=O)C(NC(=O)C3=C(O)C(Cc4ccc(O)cc4)NC3=O)c3ccccc3)C(=O)N2C1C(=O)O (stereo not drawn)	Escherichia coli	broth microdilution	Keio mutant JW5195-1	18 h	–	MIC	25 µg/mL
CC(C)C[C@H](NC(=O)[C@H](CCCNC(=N)N)NC(=O)[C@H](Cc1c[nH]c2ccccc12)NC(=O)[C@H](CCCNC(=N)N)NC(=O)[C@H](Cc1c[nH]c2ccccc12)NC(=O)[C@H](Cc1c[nH]c2ccccc12)NC(=O)[C@H](Cc1c[nH]c2ccccc12)NC(=O)[C@H](CCCNC(=N)N)NC(=O)[C@H](Cc1c[nH]c2ccccc12)NC(=O)[C@H](CCCNC(=N)N)NC(=O)CN)C(N)=O	Candida albicans	broth microdilution	CGMCC 2.209, RPMI 1640-MOPS	48 h, 30 °C, with: CaCl2 2 mM	–	MIC	64 µM
O=C(CCCCC1CCCCC1)CP(=O)(O)O	Streptococcus pneumoniae	–	–	–	–	MIC	> 200 µg/mL
CC1(C)SC2C(NC(=O)C(NC(=O)C3=C(O)C(Cc4ccco4)NC3=O)c3ccccc3)C(=O)N2C1C(=O)O (stereo not drawn)	Escherichia coli	broth microdilution	ATCC 35218, low-level TEM-1	no clavulanic acid	–	MIC	> 200 µg/mL
CC(C)C[C@@H]1NC(=O)[C@@H](Cc2ccccc2)NC(=O)[C@H](CCN)NC(=O)[C@@H](NC(=O)[C@H](CCN)NC(=O)[C@@H](N)[C@@H](C)O)CCNC(=O)[C@H]([C@@H](C)O)NC(=O)[C@H](CCN)NC(=O)[C@H](CCN)NC1=O	Escherichia coli	–	mcr-1	–	–	MIC	> 200 µg/mL
C[C@H]1CN(c2n[nH]c3nc(N[C@H]4CC[C@H](NS(=O)(=O)CCC(F)(F)F)CC4)ncc23)CCO1	HDAC1 (Homo sapiens, UniProt Q13547)	inhibitor, Kinobeads competition profiling	–	0.8 µM	baseline: vehicle	relative abundance	1.14
CC1(C)SC2C(NC(=O)C(NC(=O)C3=C(O)C4CCCN4C3=O)c3ccccc3)C(=O)N2C1C(=O)O (stereo not drawn)	Escherichia coli	broth microdilution	ATCC 35218, low-level TEM-1	with: clavulanic acid 6 µg/mL	–	MIC	200 µg/mL
CC[C@H](C)[C@H](NC(=O)CN)C(=O)NCC(=O)N[C@@H](C)C(=O)N[C@H](C(=O)N[C@@H](CC(C)C)C(=O)N[C@@H](CCCCN)C(=O)N[C@H](C(=O)N[C@@H](CC(C)C)C(=O)N[C@H](C(=O)N[C@H](C(=O)NCC(=O)N[C@@H](CC(C)C)C(=O)N1CCC[C@H]1C(=O)N[C@@H](C)C(=O)N[C@@H](CC(C)C)C(=O)N[C@H](C(=O)N[C@@H](CO)C(=O)N[C@@H](Cc1c[nH]c2ccccc12)C(=O)N[C@H](C(=O)N[C@@H](CCCCN)C(=O)N[C@@H](CCCNC(=N)N)C(=O)N[C@@H](CCCCN)C(=O)N[C@@H](CCCNC(=N)N)C(=O)N[C@@H](CCC(N)=O)C(=O)N[C@@H](CCC(N)=O)C(N)=O)[C@@H](C)CC)[C@@H](C)CC)[C@@H](C)O)[C@@H](C)O)C(C)C)C(C)C	Candida albicans	broth microdilution	58288, RPMI 1640-MOPS	48 h, 30 °C	–	MIC	4 µM

A few entries again:
Compound	tested on	assay	test system	conditions	scale	quantity	result
CC1(C)SC2C(NC(=O)C(NC(=O)C3=C(O)C(Cc4ccco4)NC3=O)c3ccccc3)C(=O)N2C1C(=O)O (stereo not drawn)	Escherichia coli	broth microdilution	ATCC 35218, low-level TEM-1	no clavulanic acid	–	MIC	> 200 µg/mL
Cc1ncc([N+](=O)[O-])n1CCO	Clostridioides difficile	–	–	–	–	MIC	0.06 to 0.5 µg/mL
